Measured values of several laboratories.
Lines come from different studies, so protocols differ. Several values in a cell are separate wells, animals, samples, runs or records. ± marks the error that the study gave.

SMILES = O=C(C[Se]C(=O)C12CC3CC(CC(C3)C1)C2)Nc1cccc(C(F)(F)F)c1; cell line = NCI60 colon subpanel; test = NCI60 five-dose screen; measurement = CC50; value = 54.9 µM
SMILES = CC(C)[C@H](NC(=O)[C@H](CCCNC(=N)N)NC(=O)[C@@H]1CCCN1C(=O)[C@@H](NC(=O)[C@H](C)NC(=O)[C@H](Cc1ccc(O)cc1)NC(=O)[C@H](CCC(N)=O)NC(=O)[C@H](CCCCN)NC(=O)[C@H](CCCNC(=N)N)NC(=O)[C@@H]1CCCN1C(=O)[C@H](CCC(=O)O)NC(=O)[C@@H](NC(=O)[C@H](C)N)[C@@H](C)O)[C@@H](C)O)C(=O)N[C@@H](Cc1ccccc1)C(=O)N[C@@H](Cc1c[nH]c2ccccc12)C(=O)N[C@H](C(=O)N[C@@H](CC(=O)O)C(=O)N[C@@H](C)C(=O)N1CCC[C@H]1C(=O)NCC(=O)NCCOCCOCCOCCOCCOCCOCCOCCOCCOCCOCCOCCOCCC(=O)N[C@@H](CS)C(N)=O)[C@@H](C)O; cell line = H1437 lung adenocarcinoma; test = cell binding, phage binding, measured: output/input phage; setting = 10 min, 37 °C; how to read = baseline: control phage; measurement = selectivity ratio; value = 3.6 ± 1.5
SMILES = COc1ccccc1-c1ccncc1C(=O)Nc1nnc(OCc2ccc(Cl)cc2)s1; cell line = DLD-1 parental (BRCA2 WT); setting = 0.5 µM, average of 3 runs; how to read = baseline: untreated; measurement = colony survival; value = 97.1%
SMILES = CSCC[C@H](NC(=O)[C@H](CC(C)C)NC(=O)[C@H](CCC(N)=O)NC(=O)[C@H](C)NC(=O)[C@H](Cc1c[nH]c2ccccc12)NC(=O)[C@H](Cc1ccc(O)cc1)NC(=O)[C@H](CCC(=O)O)NC(=O)[C@H](CC(C)C)NC(=O)[C@H](Cc1ccccc1)NC(=O)[C@@H](NC(=O)[C@H](CC(C)C)NC(=O)[C@H](CCCCN)NC(=O)CCCCCNC(=O)[C@H](CCCCN)NC(=O)[C@H](CCC(N)=O)NC(=O)[C@H](CCSC)NC(=O)[C@H](CC(C)C)NC(=O)[C@]1(C)CCCC=CCCC[C@](C)(NC(=O)[C@H](CC(C)C)NC(=O)[C@H](Cc2ccccc2)NC(=O)[C@@H](NC(=O)[C@H](CC(C)C)NC(=O)[C@H](CCCCN)NC(C)=O)[C@@H](C)O)C(=O)N[C@@H](Cc2ccc(O)cc2)C(=O)N[C@@H](Cc2c[nH]c3ccccc23)C(=O)N[C@@H](C)C(=O)N1)[C@@H](C)O)C(=O)N[C@@H](CCC(N)=O)C(=O)N[C@@H](CCCCN)C(N)=O; cell line = U-251; test = cell growth, CCK-8; setting = 16 µM; measurement = inhibition; value = inhibited
SMILES = COc1ccc(NC(=O)c2ccc3[nH]c(-c4ccc(N(C)C)cc4)nc3c2)cn1; cell line = HCT116; test = IncuCyte; setting = concentration not given, 36 (unit not given); measurement = PI-positive cells; value = 263 count and 196 count and 190 count
SMILES = O=C(O)c1ccc(-c2nc(-c3ccccc3Cl)c3sccn23)cc1; cell line = K562; test = megakaryocyte differentiation, flow cytometry; setting = 0.01 mM, 24 h; measurement = CD61-positive cells; value = 8.3% and 7.8%
SMILES = O=c1cc(-c2ccccc2)oc2c(O)c(O)ccc12; cell line = SH-SY5Y Aβ-GFP cells; test = ROS reduction, CellROX; measurement = EC50; value = 6.2 µM
SMILES = CC(C)(C)C(=O)OCOP(=O)(OCOC(=O)C(C)(C)C)C1CCCN(O)C1=O (centres unmarked); cell line = M14; measurement = log GI50; value = -6.16 log M
